Published values from different studies.
A part holds a random share of what one study measured. Positions count from the first letter of the parent shown.

Study 1
Target: RNA binding protein fox-1 homolog 2, RRM domain, GST-SBP tag (RBFOX2, Homo sapiens, UniProt O43251-10, residues 100-194)
Technique: RNA Bind-n-Seq
Form: RNA
Medium: in vitro
Concentration: 365 nM
Notes: natural RNA segment, single round, ends assumed
Reference: no-protein control
Reading: higher = stronger binding
All sequences stand within: GGGAGUUCUACAGUCCGACGAUC … UGGAAUUCUCGGGUGCCAA
Construct (chain): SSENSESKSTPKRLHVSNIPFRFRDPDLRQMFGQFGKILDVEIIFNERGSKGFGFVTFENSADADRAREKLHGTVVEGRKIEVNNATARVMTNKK
| Strand | RBNS enrichment (R) |
| --- | --- |
| ACAGGGCCUGGUGUUCUACCCCAUCUGGCCCCUGGCCCAUCUCUUCUGUGCCUUAGUCACAUAUGAAAGCGCCCCUCCCUGGCUCCCCAUCUGUCCCACACGCUCCCUGG | 0.367 |
| UCCCUUGAGACAAUAUCAUUCCCAUAUACCUCUCAUUGUCUUGGCUUUCUUAUCCAAGACGAGAAGAUAUCAGUCGGAACUGGAUUAUUCCACAGCCUUUUUAUAAACUG | 0.288 |
| CUUCACAGACGAGAGACUGUUGUCUUUGGAUUUUUCCCUCCGACUUUACUCUGUGAUUUCAGGUUCUAACAACAUGGCCUGUCGUUUUAUUUUAAAAGUUCCUGCUGUUC | 0.39 |
| AGGAAGAAACAAGCCCCCAACACAAGGCUCUGAUACUACUGGUAAAUGUAGGAGAGAAUUAAGAAUCUGUUAAUUAAAAUCCAAACAGAGCUUAUUUCAGUAGUCAAGUU | 0.281 |
| CCACAGGGCAGGGAAGGGGGUGGCUGGGCCUCCUGGCUGGCAAAGGGCUCUACUUAAAGCACAUGAUGUAGAGCAACUCGCCUCUGCCCUGGGUCUGCAGAAGGCUGAGG | 2.92 |
| UCGGAUUCCUUGUGUCCUUUGUGCUAGUGUAACCCGGGACUGGAAUGUAAAGUGAAGUUCGGAGCUCUGAGCACGGGCUCUUCCCGCCGGGUCCUCCCUCCCCAGACCCC | 0.735 |
| GGUUAAACCCACAGCUUUUGUGUGUGGUUUGUUUUGUUGUGUUUUCUUUCUCUAUGUUCCAAAACCAUUCCAUUUCAAAGCACUUUUGGUCAGCUAGCUGGAGGCAGUGU | 0.348 |
| UUAAGCUGUCGACCUUUAGUUUGCCAUACGGGUAGGACUGUAUUUCAUGUUAACAACUGGUGGUAAUGAUAAGCCUUCUUCUAGCGUAUUUUCUCUUCUUUCCUGUCACU | 0.672 |

Study 2
Target: Sal-like protein 4, full length isoform B (SALL4, Homo sapiens, UniProt Q9UJQ4-2, residues 1-616)
Technique: universal PBM
Form: double-stranded DNA, one strand shown
Medium: in vitro
Concentration: not given
Notes: 8-mer, flanks averaged, mean of replicates
Reading: higher = stronger binding
Target sequence (chain): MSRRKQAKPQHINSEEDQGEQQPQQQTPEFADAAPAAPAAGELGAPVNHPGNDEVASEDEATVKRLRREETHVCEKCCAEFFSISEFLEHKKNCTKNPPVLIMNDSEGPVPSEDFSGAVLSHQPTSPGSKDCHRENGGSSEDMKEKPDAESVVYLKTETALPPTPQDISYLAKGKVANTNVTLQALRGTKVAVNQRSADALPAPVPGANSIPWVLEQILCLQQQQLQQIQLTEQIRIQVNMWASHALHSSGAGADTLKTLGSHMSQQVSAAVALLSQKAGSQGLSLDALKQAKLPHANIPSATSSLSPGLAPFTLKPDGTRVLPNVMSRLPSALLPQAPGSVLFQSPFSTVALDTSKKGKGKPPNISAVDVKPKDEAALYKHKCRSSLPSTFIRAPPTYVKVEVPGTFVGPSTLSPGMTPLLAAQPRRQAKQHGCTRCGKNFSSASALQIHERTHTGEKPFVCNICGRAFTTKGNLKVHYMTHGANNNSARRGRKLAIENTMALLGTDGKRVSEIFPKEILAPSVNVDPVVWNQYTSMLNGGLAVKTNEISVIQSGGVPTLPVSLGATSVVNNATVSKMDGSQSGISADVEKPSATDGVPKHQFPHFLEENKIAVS
| Strand | E-score |
| --- | --- |
| ATCGCAGC | -0.0837 |
| AACGATAG | 0.169 |
| TCACCCGA | -0.134 |
| GAACTAGA | 0.0694 |
| CAGAGTGG | -0.186 |
| ATAGCCTA | 0.118 |
| TGGAGACA | 0.0103 |
| CAACCGCC | -0.312 |
| CGACGTTA | 0.0871 |
| AGCAATGG | -0.0601 |
| CCTCGCGA | -0.188 |
| CCCAGCGA | -0.261 |
| ATTGAACA | 0.168 |
| GCGTAAAC | 0.0306 |
| CCAGACAG | -0.199 |
| AGAGCCCC | -0.31 |
| ACTCTGAG | -0.166 |

Study 3
Target: ABI1, truncated, D143A, DHFR fusion (Arabidopsis thaliana)
Technique: DHFR PCA, deep sequencing
Medium: yeast
Notes: methotrexate growth selection, single substitutions
With: (+)-ABA 0.11 µM
Reference: wild-type fitted maximum
Reading: higher = stronger binding
Parent: PYL1, truncated, DHFR fusion (Arabidopsis thaliana); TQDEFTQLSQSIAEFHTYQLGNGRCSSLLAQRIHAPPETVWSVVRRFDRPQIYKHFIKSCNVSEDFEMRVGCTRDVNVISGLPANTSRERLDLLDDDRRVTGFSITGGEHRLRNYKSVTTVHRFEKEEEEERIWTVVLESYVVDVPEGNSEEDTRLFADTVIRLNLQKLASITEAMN; partner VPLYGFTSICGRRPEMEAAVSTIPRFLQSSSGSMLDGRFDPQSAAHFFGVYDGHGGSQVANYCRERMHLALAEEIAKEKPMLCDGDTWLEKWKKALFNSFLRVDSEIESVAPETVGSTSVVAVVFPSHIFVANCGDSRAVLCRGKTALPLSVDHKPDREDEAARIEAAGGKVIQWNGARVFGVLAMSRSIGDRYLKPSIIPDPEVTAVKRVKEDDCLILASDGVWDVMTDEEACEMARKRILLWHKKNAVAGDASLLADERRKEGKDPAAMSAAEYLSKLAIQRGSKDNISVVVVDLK
| Variant | relative binding score [%] |
| --- | --- |
| S80C | 30.4 |
| I33F | 2.75 |
| S87T | 34.7 |
| V70H | -1.07 |
| Y141D | 5.9 |
| S87C | 34.9 |
| C60F | -2.96 |
| G21F | -2.36 |
| H16I | -2.1 |
| Q31W | 0.546 |
| T73K | 7.64 |
| I133P | 47.2 |
| E152A | 22.3 |
| V136K | -8.47 |
| R123Y | 1.47 |

Study 4
Target: CCND1, cyclin fold, Cln2 fusion (human)
Technique: yeast growth competition, sequencing
Medium: yeast
Notes: weak parent motif
Reference: not given
Reading: higher = stronger binding
Parent: CDKN1B docking peptide (human); PSACRNLFGPVDH; partner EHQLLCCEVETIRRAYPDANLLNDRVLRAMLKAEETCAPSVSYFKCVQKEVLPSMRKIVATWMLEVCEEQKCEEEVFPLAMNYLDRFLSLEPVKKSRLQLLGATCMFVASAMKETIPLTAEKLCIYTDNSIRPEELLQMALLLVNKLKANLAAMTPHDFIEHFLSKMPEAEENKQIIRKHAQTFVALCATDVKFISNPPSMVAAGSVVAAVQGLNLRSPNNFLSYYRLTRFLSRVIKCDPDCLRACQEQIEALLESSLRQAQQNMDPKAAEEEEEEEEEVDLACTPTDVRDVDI
| Variant | normalised enrichment score |
| --- | --- |
| PSACRNLFGPVLH [D12L] | 0.654 |
| PSACKNLLGPVDH [R5K F8L] | 0.183 |
| PSACRNLRGPVDH [F8R] | -0.112 |
| PSACRNLFHPVDH [G9H] | 0.163 |
| PSACRNLFGYVDH [P10Y] | 0.88 |
| PSACRNLFGPVDV [H13V] | 0.448 |
| PSVCRNLFGPVDH [A3V] | 0.667 |
| PYACRNLFGPVDH [S2Y] | -0.153 |
| PSACRNLGGPVDH [F8G] | -0.112 |
| PSACRNVFGPVDH [L7V] | 0.295 |
| PSACRNLFGMVDH [P10M] | 0.187 |
| PSACRNLFGPVSH [D12S] | 0.246 |
| PSACRPLFGPVDH [N6P] | 0.00104 |
| PSACRNLFGPVGH [D12G] | 0.676 |
| PSACRNLWGPVDH [F8W] | 0.615 |
| PSACRNLFGPVVH [D12V] | 0.543 |
| PSACRNFFGPVDH [L7F] | 0.27 |
| PSACRNLFGQVDH [P10Q] | 0.838 |
| PSACRNLNGPVDH [F8N] | 0.207 |
| PSWCRNLFGPVDH [A3W] | 0.541 |
| WSACRNLFGPVDH [P1W] | 0.554 |
| PSACRNLPGPVDH [F8P] | 0.0694 |
| PFACRNLFGPVDH [S2F] | 0.315 |
| PSACRNLFNPVDH [G9N] | 0.237 |
| SSACRNLFGPVDH [P1S] | 1.35 |

Study 5
Target: NFE2L1, bZIP domain (human)
Technique: DHFR protein complementation
Medium: yeast
Notes: single substitutions, most at no-binding floor
Reference: wild-type JUN-FOS pair
Reading: higher = stronger binding
Parent: JUN, bZIP domain (human); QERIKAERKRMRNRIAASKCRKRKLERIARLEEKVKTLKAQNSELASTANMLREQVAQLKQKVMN; partner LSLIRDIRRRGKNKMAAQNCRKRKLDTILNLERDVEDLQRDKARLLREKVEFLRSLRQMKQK
| Variant | binding fitness [natural log] |
| --- | --- |
| L45D | -1.52 |
| S47A | -1.4 |
| K34T | -1.45 |
| R53G | -1.35 |
| V56L | -1.5 |
| K36H | -1.47 |
| A40P | -1.55 |
| T48V | -1.47 |
| K36R | -1.36 |
| A49Y | -1.54 |
| E44P | -1.54 |
| S43F | -1.51 |
| L52G | -1.49 |
| L45V | -1.53 |
| E33G | -1.49 |
| L52I | -1.56 |
| N42D | -1.45 |
| A46I | -1.11 |
| Q58P | -1.54 |
